Results collected from several papers.
Numbers after ± are the reported error.

SMILES = C=CC(=O)Nc1cccc(N(C(=O)OCc2ccc(F)cc2)c2ccnc(Nc3ccn(C)n3)n2)c1; tested on = Ba/F3 wild-type HER2; test = cell growth; how to read = above 10 µM not active; EC50 = 0.0038 ± 0.00074 µM
SMILES = COc1cc([C@@H]2c3cc4c(cc3[C@H](CC(C)C)[C@H]3COC(=O)[C@H]23)OCO4)cc(OC)c1OC; tested on = Leishmania infantum; test = iRFP fluorescence; test system = mouse splenocytes infected, amastigote, iRFP, ex vivo splenic explant; conditions = 48 h; EC50 = 15.6 ± 0.1 µM
SMILES = Cc1cc(NC(=O)c2cccc(NC(=O)C3=CC(C)(C)CCC3=O)c2)ccc1Nc1nccc(-c2cccnc2)n1; tested on = SH-SY5Y MKK7-activated cells; test = c-Jun Ser73 phosphorylation, inhibitor, Western blot; conditions = 6 h, with: doxycycline; EC50 = 3.35 ± 0.37 µM
SMILES = COCCCn1nc(-c2ccc(CC(=O)Nc3cc(C(C)(C)C)on3)cc2)c2c(N)ncnc21; tested on = A549; test = cell viability; EC50 = 5.92 ± 1.33 µM
SMILES = COc1ccc(NC(=O)N[C@H](Cc2ccc(C#N)cc2)C(=O)NCC2(c3cccc(O)c3)CC2)cc1; tested on = N9 mouse microglia; test = MTT; conditions = 24 h, resting conditions; EC50 = 44.4 µM
SMILES = CCOc1ccc2nc(SCC(=O)Nc3ccc(Br)cc3)[nH]c2c1; tested on = human neutrophils; test = calcium mobilization, agonist; EC50 = 11.2 µM
SMILES = N#Cc1ccc(C[C@H](NC(=O)Nc2ccc(O)cc2)C(=O)NCC2(c3ccccc3)CC2)cc1; tested on = N9 mouse microglia; test = MTT; conditions = 24 h, resting conditions; EC50 = > 100 µM
SMILES = COc1cccc(Nc2c(C(=O)O)c(C)nn(CC(=O)Nc3ccc(Br)cc3)c2=O)c1; tested on = human neutrophils; test = calcium flux, agonist; EC50 = 1.5 ± 0.5 µM
SMILES = Cn1nc(-c2ccc(CC(=O)Nc3cc(C(C)(C)C)on3)cc2)c2c(N)ncnc21; tested on = A549; test = cell viability; EC50 = 20.4 ± 0.51 µM
SMILES = CCN1CCN(Cc2ccc(Nc3ncc4c(n3)Sc3ccccc3C(=O)N4C)cc2C(F)(F)F)CC1; tested on = HeLa S3; test = cell growth, CellTiter-Glo; conditions = 96 h; EC50 = > 10 µM
SMILES = O=C1Nc2cccc(C#CC3(O)CCNCC3)c2/C1=C/c1cc2ccccc2[nH]1; tested on = C8161.9; test = invadopodia formation, inhibitor; conditions = short-term; EC50 = < 0.05 µM
SMILES = O=C(Nc1ccc([N+](=O)[O-])cc1)N[C@@H](Cc1c[nH]c2ccccc12)C(=O)NCC1(c2ccccc2)CC1; tested on = human neutrophils; test = Ca2+ mobilization, agonist; conditions = with: probenecid 2.5 mM; EC50 = 2.3 ± 0.51 µM
SMILES = COC(=O)[C@@]1(C)C=C(C(=O)OCc2cccc(C(=O)Nc3ccc(Nc4nccc(-c5cccnc5)n4)c(C)c3)c2)C(=O)CC1; tested on = SH-SY5Y MKK7-activated cells; test = c-Jun Ser73 phosphorylation, inhibitor, Western blot; conditions = 6 h, with: doxycycline; EC50 = 7.33 ± 3.6 µM
SMILES = O=C(Nc1ccc([N+](=O)[O-])cc1)N[C@@H](Cc1c[nH]c2ccccc12)C(=O)NCC1(c2ccccc2)CCCCC1; tested on = human neutrophils; test = chemotaxis, agonist; EC50 = 0.22 ± 0.07 µM
SMILES = CCc1ccc(NC(=O)CSc2nc3ccc(OC)cc3[nH]2)cc1; tested on = human neutrophils; test = calcium mobilization, agonist; EC50 = 0.8 µM
SMILES = O=C(Nc1ccc([N+](=O)[O-])cc1)N[C@@H](Cc1c[nH]c2ccccc12)C(=O)NCC1(c2ccccn2)CCCCC1; tested on = human neutrophils; test = chemotaxis, agonist; EC50 = 2.3 µM
SMILES = CCOC(=O)COC(=O)[C@@H]1C(C=O)=Cc2cc3c(cc2[C@H]1c1cc(OC)c(OC)c(OC)c1)OCO3; tested on = Leishmania infantum; test = iRFP fluorescence; test system = mouse splenocytes infected, amastigote, iRFP, ex vivo splenic explant; conditions = 48 h; EC50 = 4.3 ± 0.1 µM

For quick reference, copied from above:
SMILES = Cn1nc(-c2ccc(CC(=O)Nc3cc(C(C)(C)C)on3)cc2)c2c(N)ncnc21; tested on = A549; test = cell viability; EC50 = 20.4 ± 0.51 µM
SMILES = CCN1CCN(Cc2ccc(Nc3ncc4c(n3)Sc3ccccc3C(=O)N4C)cc2C(F)(F)F)CC1; tested on = HeLa S3; test = cell growth, CellTiter-Glo; conditions = 96 h; EC50 = > 10 µM
